Results gathered from unrelated publications.
Each numbered part is a random draw from the data of one study; scales do not carry over between parts.

Study 1
Target: Interferon regulatory factor 3, full length, phosphomimetic (IRF3, Homo sapiens, UniProt Q14653, residues 1-427, S386D/S396D/S398D/S402D/T404D/S405D)
Technique: protein-binding microarray
Form: double-stranded DNA, one strand shown
Medium: in vitro
Concentration: 2540 nM top
Notes: 60-bp whole probe
With: salmon DNA 0.4 mg/ml
Reference: random background probes
Reading: higher = stronger binding
Shared flanks, not repeated: GCCTAGCAC … GTCTTGATTCGCTTGACGCTGCTG
Construct (chain): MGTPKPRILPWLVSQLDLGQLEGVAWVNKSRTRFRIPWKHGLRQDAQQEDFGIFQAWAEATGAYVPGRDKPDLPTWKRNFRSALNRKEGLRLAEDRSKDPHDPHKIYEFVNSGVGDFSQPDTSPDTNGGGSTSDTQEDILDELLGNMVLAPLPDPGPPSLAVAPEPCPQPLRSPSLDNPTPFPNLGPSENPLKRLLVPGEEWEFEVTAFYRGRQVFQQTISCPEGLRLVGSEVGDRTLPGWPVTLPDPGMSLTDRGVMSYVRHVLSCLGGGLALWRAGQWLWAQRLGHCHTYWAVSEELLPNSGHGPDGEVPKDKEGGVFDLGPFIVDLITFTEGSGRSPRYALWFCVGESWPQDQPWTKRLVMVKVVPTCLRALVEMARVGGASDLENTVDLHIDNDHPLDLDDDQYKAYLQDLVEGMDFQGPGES
Strand	fitted relative affinity [z-score]
GACGCTATCAGACTGGAGACGTGCTAG	-0.107
TTAGGACTGCTTGTCCTTTAGTGCTAG	-0.291
TTGGGTTCCCTTTTCCTTTAGTGCTAG	6.53
TTAGATCTCAGACTGGAATAGTGCTAG	0.0732
GATGATATCGGGTTTCGAGACGTGCTA	0.931
GACGGCATCGACTTTCGGGACGTGCTA	0.0428
TTAGGTATCGGGATTGGGTTAGTGCTA	1.37
GACGGTATCGGTTTCGGCACGTGCTAG	6.92
TCATTTTTGCTTTCTTTACTGTGCTAG	2.88
TTAGATATCGGGTATCGTTTAGTGCTA	0.54
GAAGGTTTCGGTCTCGGGACGTGCTAG	8.13
TTAGGTCTCCTACTGCTTTCGTGCTAG	0.662
TCAACACTCACCATGGCACTGTGCTAG	-0.24
GACGAACTGGTGACTGGAGACGTGCTA	-0.457
ACCATTCTCGGGACTCACCTGGTGCTA	3.83
AACAGGAGCAGATGGGAAGTGTGCTAG	-0.272
TCATTCCTGATCTCTGGTCTTGTGCTA	1.07

Study 2
Target: Ras GTPase-activating protein-binding protein 1, RRM domain (G3BP1, Homo sapiens, UniProt Q13283)
Chain of UniProt Q13283 (whole entry, looked up): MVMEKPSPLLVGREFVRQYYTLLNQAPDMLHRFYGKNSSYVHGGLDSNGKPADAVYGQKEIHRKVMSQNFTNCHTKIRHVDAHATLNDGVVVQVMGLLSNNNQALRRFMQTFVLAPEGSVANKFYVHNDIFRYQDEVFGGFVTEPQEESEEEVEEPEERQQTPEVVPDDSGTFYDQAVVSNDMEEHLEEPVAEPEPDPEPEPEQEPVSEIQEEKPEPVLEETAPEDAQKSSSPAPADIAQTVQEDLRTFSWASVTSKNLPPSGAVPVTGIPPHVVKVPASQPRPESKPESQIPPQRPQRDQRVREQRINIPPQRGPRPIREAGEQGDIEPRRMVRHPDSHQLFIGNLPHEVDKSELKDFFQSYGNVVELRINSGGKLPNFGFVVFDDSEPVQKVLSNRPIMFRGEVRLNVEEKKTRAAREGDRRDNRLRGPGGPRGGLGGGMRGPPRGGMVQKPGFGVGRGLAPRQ
Technique: RNA Bind-n-Seq
Form: RNA
Medium: in vitro
Concentration: 1 µM
Notes: whole 134-nt RNA, ends assumed
With: 150 mM KCl
Reference: input library
Reading: higher = stronger binding
Shared flanks, not repeated: GGGAGUUCUACAGUCCGACGAUC … UGGAAUUCUCGGGUGUCAAGG
Strand	log2 enrichment
CAAGUCCUGUGCUACACAUCGUAUGUACCGAAUCGGGAGGGAAAAAAAGGGAGGGAAAGUAUUAUGUUACGCCGUUCGGAUCUGCACUUC	0.687
AGUCCUGUGCUACACAUCGUAUGUACCGAAUCGGGCCCCGGGCCCCGGGGCCCCGGGAAAGUAUUAUGUUACGCCGUUCGGAUCUGCACU	-0.666
UGGGAGGUGGAUUUUGUUUAUUUUUUUAGCUCAUUUCCAGGGGUGGGAAUUUUUUUUUAACAUGUGUCAUGAAUAAAGUUGUUUUUGAAA	1.69
UCAAGUCCUGUGCUACACAUCGUAUGUACCGAAUCGGAAAGGGGAAAGGAAAGGGAAAGUAUUAUGUUACGCCGUUCGGAUCUGCACUUC	-0.275
UGCUCUCCGUGCCACAUGCGCCCGCAGGUUACGCCAAGGAGGCCCUGAAUCUGGCGCAGAUGCAGGAGCAGACGCUGCAGUUGGAGCAAC	-0.515
UAACUUUAGAGGAGGAUCUGAUGGAUAUGGCAGUGGACGUGGAUUUGGGGAUGGCUAUAAUAGGUAUGGAGGAGGACCUGGAGGUGGCAA	-0.298
UGUGCUACACAUCGUAUGUACCGAAUCGGCCCCCCCGGGGCCCCCCCGGGGCCCCCCCGGGGAAAGUAUUAUGUUACGCCGUUCGGAUCU	-0.64
CAAGUCCUGUGCUACACAUCGUAUGUACCGAAUCGGGGUGGGGUGGGGAAAGGGGAAAGUAUUAUGUUACGCCGUUCGGAUCUGCACUUC	1.01
CACAGACAACACGCACCCACACAGACACAGUGGGAAGGGGUUGGGAUGGGGACAGGGUGCACAGCAGGGCGGGGUAGGACCCCAGCCCCU	0.644
UCAAGUCCUGUGCUACACAUCGUAUGUACCGAAUCGGUUUGGUGGAAAAAAAGGAAAGUAUUAUGUUACGCCGUUCGGAUCUGCACUUCC	-0.109
GUCCUGUGCUACACAUCGUAUGUACCGAAUCGGUUUUUGGGGUUUUUGGGGUUUUUGGGAAAGUAUUAUGUUACGCCGUUCGGAUCUGCA	-0.0426
UCAAGUCCUGUGCUACACAUCGUAUGUACCGAAUCGGGCCCGGCCCGGCCCGGGGAAAGUAUUAUGUUACGCCGUUCGGAUCUGCACUUC	-0.669
UCCUGUGCUACACAUCGUAUGUACCGAAUCAAAUUUAAACCCCCCCAAACCCCCCCAAAAAAGUAUUAUGUUACGCCGUUCGGAUCUGCA	-0.218
AAGUCCUGUGCUACACAUCGUAUGUACCGAAUCGGGGCCCGGGGCCCGGGCCCGGGAAAGUAUUAUGUUACGCCGUUCGGAUCUGCACUU	-0.86

Study 3
Target: Histone acetyltransferase KAT6A, winged helix 1, GST fusion (KAT6A, Homo sapiens, UniProt Q92794, residues 1-85)
Technique: protein binding microarray
Form: double-stranded DNA, one strand shown
Medium: in vitro
Concentration: not given
Notes: 8-mer, flanks averaged, mean of 2 arrays, mostly near background
Reference: not given
Reading: higher = stronger binding
Residues (chain): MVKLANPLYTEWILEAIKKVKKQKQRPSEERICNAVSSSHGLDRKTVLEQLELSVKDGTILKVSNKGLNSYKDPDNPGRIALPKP
Strand	E-score
CGTAGAAG	-0.00225
AACACGGT	0.13
TGCATGCA	-0.112
CTCGTACA	-0.0727
ACGTATCC	-0.0965
CCCGTGAC	0.336
CGACCCCG	0.38
AGCGACTC	-0.0643
CAATATTA	-0.0178
AAATTTGC	-0.16
TCCGGGAA	0.0441
GGATACAC	-0.115
TACGCACA	0.0345
CCGGACCG	0.205
ACCTCTAC	-0.0281
ACACTAAA	-0.113
ATAGCGAA	-0.171
ACCAAGGA	-0.189
GGACACGA	0.0799
CAACGCGG	0.348
CGCTGTAC	0.178
CTTGAGGC	0.0325
GTCCCAGA	-0.126
CGAAAGTA	-0.0773
AACGGGTC	0.312

Study 4
Target: RNA binding protein fox-1 homolog 2, RRM domain, GST-SBP tag (RBFOX2, Homo sapiens, UniProt O43251-10, residues 100-194)
Technique: RNA Bind-n-Seq
Form: RNA
Medium: in vitro
Concentration: 365 nM
Notes: natural RNA segment, single round, ends assumed
Reference: no-protein control
Reading: higher = stronger binding
Shared flanks, not repeated: GGGAGUUCUACAGUCCGACGAUC … UGGAAUUCUCGGGUGCCAA
Residues (chain): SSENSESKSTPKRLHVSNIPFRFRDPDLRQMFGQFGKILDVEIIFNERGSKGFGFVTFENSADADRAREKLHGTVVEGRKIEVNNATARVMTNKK
Strand	RBNS enrichment (R)
CAGGAUGUCUGAUGCAGAGCGGUUCUCCAUCCCUCAGUUCCAGAAAAAAUGGAGUGAUAUUUAAAAAUGCCAUCGAUGGUGGGGAUCUUACUGGGGAAGAGGAAGGACCA	0.468
UGAUGAAUAUAUUUAAAUUUUUUUAUUGUGGAGCAUAGGAAUUGUCCCCCAUUCCUAGGCCUAACCUUGCUUGAACAGGGUUGGGCAAAGCUGCGGUAUUAUUGGUUGAG	0.37
GUGAAUAAAGUUAUGUUCAGAUAGUUUGUACAGAAAAAAUAAUAAUAAAAUGGAUGCCCUUCAUGUUUUAUUGCUAUUACUAAAUGUCAAGAUUGUAUGCUAUUAUGUCU	0.498
AAUUAAAGUUAUUAUAACAGUAAUUCUUUGAAGUCGAUCUGUCCUUCAGUUUUCUUUUCUACAAUAAAGUGUUCGUUAAAUUUGGUUAAAAACAAAACAACAAACUUGAU	0.58
GGCUCAUUCAAAGUUAAAAUCAGAGUCUCAGAGUUAAAACAGACAUUAAUGACUUAUCCAACCCUGUUUUUCUAAAAAGAAAGGUAACAGGCAAAAAGUGUGUUGCCGAG	0.44
GCUUGCAGUGCUCCUCAACAGAGGGAGAGUCUCCCUAAGAUUUCCAUGUUCCUAGACAAAGUCCUAAGCUGUUUGGAAGUCUGUGAGCAUUUUCAGUAUAUGAGGAGCUG	0.822
CCAAAUAGCCUGGAGUUGUUUGUCCUACUUGUUCCAUAACCCCUAUGCUCAAGAUACUGAAGCUAUCUGUGGUAUUUCAUGUAACAUUUCUAAGAAUAAGAGCUGGCAAA	0.413
UCCUCUCCUCUAUAGCUAUUAGAUGUGUCAGGACCAAGUUGACCCCAACUUUCAGAACGUCCCUAGCCCUGUCUUCAUCCCUUCCCCUGCCAGUGCCUUACCACCUACCC	1.12
CCCUGCCUAGCUUAAAGUAUAGUCAUGAGAUGGAGUUGGGAGCACUAUACUGGUCACUUACCACCUGGGGCCUCAGUUUCCUGAUCUGCGAAAGGGGCAAGGGCUAAGGC	0.361
GCUCUGGAAGUUUGGCUACCUCUAGGCAUGUGAGAAGGAAGGAAAGCCUAUUGCCUUUUCUCCUUUUACUUCAGCACCCAGCUACUGACUGGUUUCCAUAUCCCCACCCU	1.8
UUUGUGGCUGUUUAAGUCACCAACAAUAGAGUCAGGGUAAAGAAUAAAAACACUUUCAUAGCCUCAUUCAUUCACUUAGAAGUGGUAAUAAUUUUUCCCUAAUGAUACCA	0.308
ACCGACAGCCCUUCUCUGCGGUUGUCUGACUGGACACACUUCCUGAAAUCAGGCCGUUUCCCUCCGCGUGCAUUGGUUUUGGUCUGUCUUUCAGUUCUGUUUCAAACUAG	0.62

Excerpt of the above (study 4):
Strand	RBNS enrichment (R)
CAGGAUGUCUGAUGCAGAGCGGUUCUCCAUCCCUCAGUUCCAGAAAAAAUGGAGUGAUAUUUAAAAAUGCCAUCGAUGGUGGGGAUCUUACUGGGGAAGAGGAAGGACCA	0.468
UGAUGAAUAUAUUUAAAUUUUUUUAUUGUGGAGCAUAGGAAUUGUCCCCCAUUCCUAGGCCUAACCUUGCUUGAACAGGGUUGGGCAAAGCUGCGGUAUUAUUGGUUGAG	0.37
GUGAAUAAAGUUAUGUUCAGAUAGUUUGUACAGAAAAAAUAAUAAUAAAAUGGAUGCCCUUCAUGUUUUAUUGCUAUUACUAAAUGUCAAGAUUGUAUGCUAUUAUGUCU	0.498
AAUUAAAGUUAUUAUAACAGUAAUUCUUUGAAGUCGAUCUGUCCUUCAGUUUUCUUUUCUACAAUAAAGUGUUCGUUAAAUUUGGUUAAAAACAAAACAACAAACUUGAU	0.58
GGCUCAUUCAAAGUUAAAAUCAGAGUCUCAGAGUUAAAACAGACAUUAAUGACUUAUCCAACCCUGUUUUUCUAAAAAGAAAGGUAACAGGCAAAAAGUGUGUUGCCGAG	0.44
GCUUGCAGUGCUCCUCAACAGAGGGAGAGUCUCCCUAAGAUUUCCAUGUUCCUAGACAAAGUCCUAAGCUGUUUGGAAGUCUGUGAGCAUUUUCAGUAUAUGAGGAGCUG	0.822
CCAAAUAGCCUGGAGUUGUUUGUCCUACUUGUUCCAUAACCCCUAUGCUCAAGAUACUGAAGCUAUCUGUGGUAUUUCAUGUAACAUUUCUAAGAAUAAGAGCUGGCAAA	0.413
UCCUCUCCUCUAUAGCUAUUAGAUGUGUCAGGACCAAGUUGACCCCAACUUUCAGAACGUCCCUAGCCCUGUCUUCAUCCCUUCCCCUGCCAGUGCCUUACCACCUACCC	1.12
